Measurements from different studies.
Protocols differ between the studies behind these lines. Values joined by “and” are separate records of one study, mostly repeats; a detail may differ. Converted amounts (≈) assume the structure as drawn.

CN[C@H](CC(C)C)C(=O)N[C@H]1C(=O)N[C@@H](CC(N)=O)C(=O)N[C@H]2C(=O)N[C@H]3C(=O)N[C@H](C(=O)N[C@H](C(=O)O)c4cc(O)cc(O)c4-c4cc3ccc4O)[C@H](O)c3ccc(c(Cl)c3)Oc3cc2cc(c3O[C@@H]2O[C@H](CO)[C@@H](O)[C@H](O)[C@H]2O[C@H]2C[C@](C)(N)[C@H](O)[C@H](C)O2)Oc2ccc(cc2Cl)[C@H]1O
MIC (Staphylococcus aureus; MRSA strain 1): 1 µg/mL (≈ 0.69 µM)

CCCCCCCCCC(=O)N[C@@H](Cc1c[nH]c2ccccc12)C(=O)N[C@H](CC(N)=O)C(=O)N[C@@H](CC(=O)O)C(=O)N[C@@H]1C(=O)NCC(=O)N[C@@H](CCCN)C(=O)N[C@@H](CC(=O)O)C(=O)N[C@H](C)C(=O)N[C@@H](CC(=O)O)C(=O)NCC(=O)N[C@H](CO)C(=O)N[C@@H]([C@H](C)CC(=O)O)C(=O)N[C@@H](CC(=O)c2ccccc2N)C(=O)O[C@@H]1C
MIC (Staphylococcus aureus; broth microdilution; VISA LIM strain 2, Mueller-Hinton broth, Mg2+ 10 mg/L; 16 h, added: Ca2+ 5 mM): 0.125 µg/mL (≈ 0.0771 µM)

OB(O)c1csc2ccccc12
growth relative to untreated (Staphylococcus aureus; USA300 wild type; 5 µM; reference: untreated): 69.3% and 79.4% and 89.7% and 84% and 72.7%

CC(C)[C@H](C(=O)Nc1ccc(C(=O)NO)cc1)c1ccccc1
maximum inhibition (human coronavirus OC43; virus-induced cell killing; MRC-5; screen): 6.61%

CO/N=C(\C(=O)N[C@@H]1C(=O)N2C(C(=O)O)=C(CSC(=O)c3ccco3)CS[C@H]12)c1csc(N)n1
MBC (Staphylococcus aureus; CAAS-2019-CAAS-2019-10 clinical blaZ-resistant isolate, PBS): 16 µg/mL

CC(C)(C(=O)c1cccnc1)c1cccnc1
maximum inhibition (human coronavirus OC43; virus-induced cell killing; MRC-5; screen): 19.3%

C=CC[C@@H]1c2ccc(OC)c(OC)c2CN2CCc3cc4c(cc3[C@H]12)OCO4
relative wound size (Staphylococcus aureus; P2rx7+/+ mice, skin wound infection; dose not given, day 3; reference: day 0): 1.13

CC[C@H](C)[C@H](NC(=O)[C@H](C)NC(=O)[C@H](CCCCN)NC(=O)[C@H](CC(C)C)NC(=O)[C@H](C)NC(=O)[C@@H](NC(=O)[C@H](Cc1c[nH]cn1)NC(=O)[C@H](CC(C)C)NC(=O)[C@@H](NC(=O)[C@@H](NC(=O)[C@H](CCCCN)NC(=O)[C@H](C)NC(=O)[C@H](C)NC(=O)[C@H](CO)NC(=O)[C@H](CCCCN)NC(=O)[C@H](Cc1ccccc1)NC(=O)[C@@H](NC(=O)[C@H](CCCCN)NC(=O)[C@H](CC(C)C)NC(=O)[C@H](Cc1ccccc1)NC(=O)[C@H](CO)NC(=O)[C@H](CCCCN)NC(=O)[C@H](Cc1c[nH]c2ccccc12)NC(=O)[C@H](CCCCN)NC(C)=O)[C@@H](C)O)[C@@H](C)O)C(C)C)[C@@H](C)O)C(=O)N[C@@H](CO)C(=O)N[C@@H](CO)C(N)=O
MIC geometric mean (Staphylococcus aureus; MRSA; 130 strains): 5.54 µg/mL (≈ 1.89 µM)

CC(C)C[C@H](NC(=O)CNC(=O)CNC(=O)CNC(=O)[C@H](Cc1ccc(O)cc1)NC(=O)[C@H](CC(C)C)NC(=O)[C@@H](NC(=O)CNC(=O)[C@H](Cc1ccc(O)cc1)NC(=O)[C@H](CCCCN)NC(=O)[C@H](CC(N)=O)NC(=O)[C@@H](NC(=O)[C@H](CCCCN)NC(=O)[C@H](Cc1c[nH]c2ccccc12)NC(=O)CN)[C@@H](C)O)[C@@H](C)O)C(=O)N[C@@H](CCCCN)C(=O)N[C@@H](CCCCN)C(=O)N[C@@H](CC(C)C)C(=O)N[C@@H](CC(C)C)C(=O)N[C@@H](CC(C)C)C(=O)N[C@@H](CC(C)C)C(=O)N[C@@H](CC(C)C)C(=O)N[C@@H](CCCCN)C(=O)N[C@@H](CCCCN)C(=O)N[C@@H](CC(C)C)C(=O)NCC(=O)O
MIC (Staphylococcus aureus; USA300; added: 6 µM NH4Cl): 32 µg/mL (≈ 11.2 µM)

Cc1c2c(nn1C)CSCc1cc(n(C)n1)CSc1cc(c3ccccc3c1)OCCCc1c(C(=O)O)n(C)c3c-2c(Cl)ccc13
log2 fold change (Staphylococcus aureus; label-free quantitative proteomics, refers to: SAOUHSC_00113 protein; SA113; concentration not given; reference: untreated control): -5.87

CC[C@H](C)[C@H](NC(=O)[C@H](CCCCN)NC(=O)[C@H](CCCCN)NC(=O)[C@H](Cc1ccccc1)NC(=O)[C@@H](NC(=O)[C@@H](NC(=O)[C@H](CCCNC(=N)N)NC(=O)[C@H](Cc1ccccc1)NC(=O)[C@@H](NC(=O)[C@H](CCCCN)NC(=O)[C@H](CCCCN)NC(=O)[C@@H](N)CCSC)[C@@H](C)CC)C(C)C)[C@@H](C)CC)C(=O)N[C@@H](CC(C)C)C(=O)N[C@@H](CCCCN)C(=O)N[C@@H](CCCNC(=N)N)C(=O)N[C@@H](CC(C)C)C(=O)N[C@H](C(=O)N[C@H](C(=O)O)C(C)C)[C@@H](C)CC
MIC (Staphylococcus aureus; broth microdilution; ATCC 25923; added: 4.5 mM KCl): 4 µg/mL (≈ 1.76 µM)

For quick reference, copied from above:
OB(O)c1csc2ccccc12
growth relative to untreated (Staphylococcus aureus; USA300 wild type; 5 µM; reference: untreated): 69.3% and 79.4% and 89.7% and 84% and 72.7%
